Assay results gathered from unrelated publications.
Every numbered part comes from another study and shows a few of its results, in no order. Substitutions count along the parent as printed.

Block 1
Target: Ras GTPase-activating protein-binding protein 1, RRM domain (G3BP1, Homo sapiens, UniProt Q13283)
Sequence of UniProt Q13283 (whole entry, looked up): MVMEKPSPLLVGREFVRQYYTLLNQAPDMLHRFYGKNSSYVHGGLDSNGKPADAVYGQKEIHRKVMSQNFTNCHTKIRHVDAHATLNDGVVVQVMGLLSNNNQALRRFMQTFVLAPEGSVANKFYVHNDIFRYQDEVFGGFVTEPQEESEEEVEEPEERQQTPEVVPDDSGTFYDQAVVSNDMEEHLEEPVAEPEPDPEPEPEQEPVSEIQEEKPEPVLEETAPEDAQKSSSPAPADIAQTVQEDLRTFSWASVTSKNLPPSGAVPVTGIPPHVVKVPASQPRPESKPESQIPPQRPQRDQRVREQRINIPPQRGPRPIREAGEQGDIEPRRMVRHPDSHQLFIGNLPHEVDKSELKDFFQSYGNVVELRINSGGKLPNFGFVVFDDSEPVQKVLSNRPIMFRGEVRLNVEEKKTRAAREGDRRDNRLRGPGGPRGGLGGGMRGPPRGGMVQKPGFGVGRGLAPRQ
Method: RNA Bind-n-Seq
Form: RNA
Matrix: in vitro
Tested at: 1 µM
Notes: whole 134-nt RNA, ends assumed
With: 150 mM KCl
Reference: input library
Direction: higher = stronger binding
All sequences stand within: GGGAGUUCUACAGUCCGACGAUC … UGGAAUUCUCGGGUGUCAAGG
Oligonucleotide | log2 enrichment
AAGUCCUGUGCUACACAUCGUAUGUACCGAAUCGGGGUGGGGAGGGGAAAAAGGGGAAAGUAUUAUGUUACGCCGUUCGGAUCUGCACUU | 0.82
UAACUUUAGAGGAGGAUCUUAUGGAUAUGGCAGUGGACGUGGAUUUGGGGAUGGCUAUAAUGGGUAUGGAGGAGGACCUGGAGGUGGCAA | -0.727
CCUGUGCUACACAUCGUAUGUACCGAAUCGGGGUUUUUGGGGUUUUUGGGGAAAAAGGGGAAAGUAUUAUGUUACGCCGUUCGGAUCUGC | 0.636
UUCCCCUGGAGGGCGCCUCCAUCCUUGGAGGCCUAGUGCCGUCGGAGAGAGAGCGGGAGCCGCGGACAGAGACGCGUGCGCAAUUCGGAG | -0.502
UGAAAAUUCUCGACUGGCUGCUGAGGUUUACAAAGACAUGCCGGAAACCAGCUUUACUCGAACCAUUUCUAAUCCUGAGGUGGUUAUGAA | -0.197
CACAGACAACACGCACCCACACAGACACAGAGGGAAGGGGUUGAGAUGGGGACAGGGUGCACAGCAGGGCGGGGUAGGACCCCAGCCCCU | -0.0306
AUAGAUUGCGCAGUCUCUUUGUGGAGAGGACUUGAUCAUUAAAGGAAUCAGCGUUCAUAUAUCCAAUGCCGAACCUAAGCACAAUAGCAA | -0.0037
UGGCCCUGGUGGCAUGCGGGGAGGAAGAGGUGGCCUCAUGGAUCGUGGUGGUCCCGUUGGAAUGUUCAGAGGUGGCCGUGGUGGAGACAG | 0.89
CACAGACAACACGGACCCACACAGACACAGAGGGAAGGGGUUGGGAUGGGGACAGGGUGCACAGCAGGGCGGGGUAGGACCCCAGCCCCU | -0.0786
CUGUGCUACACAUCGUAUGUACCGAAUCGGGAAAAAAAGGAAAAAAAGGGGAAAAAAAGGGAAAGUAUUAUGUUACGCCGUUCGGAUCUG | 0.134
CCUGUGCUACACAUCGUAUGUACCGAAUCGGGGAAAAAAAGGGAAAAAAAGGAAAAAAAGGAAAGUAUUAUGUUACGCCGUUCGGAUCUG | 0.0514
ACCAUGCAGGUGGGCAUCUUUGGGAAGUGGGGCAAGGGGGGGAUAGGGAUGGGGGUAACACUUUGGGAACAGGUGGUCCCAGGUCGUUUC | 1.02
GUCCUGUGCUACACAUCGUAUGUACCGAAUCGGGCCCCCGGGGCCCCCGGCCCCCGGGGAAAGUAUUAUGUUACGCCGUUCGGAUCUGCA | -0.772
UCCUCAAGUCCUGUGCUACACAUCGUAUGUACCGAAUCGGGAGGGGAGGAGGAAAGUAUUAUGUUACGCCGUUCGGAUCUGCACUUCCAG | -0.168

Block 2
Target: CREB3L2, bZIP domain (human)
Method: DHFR protein complementation
Matrix: yeast
Notes: single substitutions, most at no-binding floor
Reference: wild-type JUN-FOS pair
Direction: higher = stronger binding
Parent: JUN, bZIP domain (human); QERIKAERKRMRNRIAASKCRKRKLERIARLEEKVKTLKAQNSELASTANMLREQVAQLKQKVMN; partner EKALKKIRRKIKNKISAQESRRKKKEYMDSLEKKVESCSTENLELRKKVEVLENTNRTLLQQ
Variant | binding fitness [natural log]
N42L | -1.53
E44T | -1.56
A49F | -1.51
R53M | -1.46
A40F | -1.52
A46P | -1.52
E54L | -1.46
S47N | -1.5
Q41K | -1.46
K39M | -1.39
L38N | -1.53
E54P | -1.51
E32A | -1.47
R30F | -1.2
R30T | -1.37
T37Y | -1.61
Q41V | -1.38
I28R | -1.47
E44Y | -1.45

Block 3
Target: RNA binding protein fox-1 homolog 2, RRM domain, GST-SBP tag (RBFOX2, Homo sapiens, UniProt O43251-10, residues 100-194)
Method: RNA Bind-n-Seq
Form: RNA
Matrix: in vitro
Tested at: 365 nM
Notes: natural RNA segment, single round, ends assumed
Reference: no-protein control
Direction: higher = stronger binding
All sequences stand within: GGGAGUUCUACAGUCCGACGAUC … UGGAAUUCUCGGGUGCCAA
Residues (chain): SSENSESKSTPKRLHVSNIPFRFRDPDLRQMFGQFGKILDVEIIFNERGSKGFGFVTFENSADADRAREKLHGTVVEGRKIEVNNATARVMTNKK
Oligonucleotide | RBNS enrichment (R)
UGAAGGGAUUCCAUCUCUCCAUCUCCCAGUUUAUCAUUGUGGUCCAAUUACAUAGUCAGCUACAUAAUUGGCUUGCUUAUACAAAGAUAAGCAAGAGUCUUUCAUUGUCA | 0.27
GAUAGAUGGUGUAUUAUUUAUGGAUCAGGCUGCUGCAUACAAACCUUGCAUACUAUUAUGCAGCUUACCUAACUCUCAGACUAUUCUGAGUAAUGCUUGCUUGCUAAUGA | 1.38
UUUUAAUGACAAUGAAGUGACACUUUGACAUUUCCUACCUUUUGAGGACUUGAUCCUUCUCCAGGAAGAAGGUGCUUUCUGCUUACUGACUUAGGCAAUACACCAAGGGC | 0.32
CUCCCAGUCUCAAAUUGGGCUGGGUAUGGCGGUGUAUAUGCAUGGGAAGCGUCUUGGGGAGGGUGGUAGAAGCACAAAAGAAUCACAGAAUUAUUUUCUAAGCAAAAUAA | 33.5
CCCCUUCCCUGAUGCCAGGGGCACCAGACUGAUUCUGAGGCACAAAUAAAAGAGGCUUCAUACCGGAGGCUUUUGCUACCUAACUUUACUUGGGGGGAACGCCUACGGUG | 0.246
GGCUUGCAUCCUGUUGUGUAUUCUUUGUAUGCUGCUGACUAUAUCCCUAUUCUGCUGUAGGGGACUAGAUUUCUAAUAGAGAACAUUGGCAUGGUAGCUGAAGCCCACUC | 1.08
UUUUUAUGUAUUCCUGUUUAUUUAUUUACUGCCACGCUACUGAUAUUCAGACCUUCAUGAUCAUCCAUCUGGUGAGCAGAGCUUCAUUUGUAUAUAACACUUUCAGAGCC | 0.539
AUCAAAUAUCCCUAGGUCAUCUGCCACCCACUUUCCAAGACCUUUCUCCUACUCAACCAGGAAGUCAUGGUUUCUGCAGUCCAGAGCCAUGGCAACUGAGAUUCUAAGCU | 0.239
AAUAAAUUUCUUUGAUGUCUUCCCUACUUUCUCCACAUCAAUCAGAUUAAAGUGUGUAACCCCAUCUAUACAGUUAGUCUUUAUUUAUUUUUUACCUUCUUAUUGCCUUU | 1.53
CAGCCGUGUGUGCUGUGGAGCCGAGGCCGUCCUGCAGGAAGCCGCGUGACUCCCGCCUCCUCCCUGUGCUCUCUGGCUCUGGACUGUGACUGCGCCUGGAUUCUGCCAUU | 0.375
UCAUGUGUGUUACUAUUAGGUAUAUAUAGGCUAGAUUGUGCCCACUAUCCUGGAAGGUGGCAAGUUUAGAGACGAUAGCACAAUUUUCAUGAACAUAGCACUGGGGCAUG | 1.13
UCAUUUUUAAAAAAAGAUGAAGCAUUUCAAAAUCUUGUUAACCUGGUUAUCUCUUGGUAUCUCUCCUGACAUAUUUGUUUUGCUUUAAAUUGGAUUAAAUGGUUUACAGG | 0.43

Block 4
Target: Interferon regulatory factor 7, full length, phosphomimetic (IRF7, Homo sapiens, UniProt Q92985, residues 1-503, S101K/S471D/S472D/S475D/S476D/S477D/S483D/S484D/S487D)
Method: protein-binding microarray
Form: double-stranded DNA, one strand shown
Matrix: in vitro
Tested at: 250 nM
Notes: 60-bp whole probe
With: salmon DNA 0.4 mg/ml
Reference: random background probes
Direction: higher = stronger binding
All sequences stand within: GCCTAGCAC … GTCTTGATTCGCTTGACGCTGCTG
Residues (chain): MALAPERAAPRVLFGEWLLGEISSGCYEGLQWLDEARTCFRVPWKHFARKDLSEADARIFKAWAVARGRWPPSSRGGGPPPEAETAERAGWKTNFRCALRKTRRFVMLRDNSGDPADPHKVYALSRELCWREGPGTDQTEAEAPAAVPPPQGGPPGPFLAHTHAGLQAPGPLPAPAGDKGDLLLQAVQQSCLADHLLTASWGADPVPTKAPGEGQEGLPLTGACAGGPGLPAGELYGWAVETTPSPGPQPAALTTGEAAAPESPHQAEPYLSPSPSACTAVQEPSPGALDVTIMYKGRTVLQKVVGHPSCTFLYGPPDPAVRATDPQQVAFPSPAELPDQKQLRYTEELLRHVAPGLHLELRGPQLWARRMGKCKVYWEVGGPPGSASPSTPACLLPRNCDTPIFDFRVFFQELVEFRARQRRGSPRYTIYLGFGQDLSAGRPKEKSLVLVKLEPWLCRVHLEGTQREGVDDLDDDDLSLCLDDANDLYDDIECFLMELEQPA
Oligonucleotide | log fluorescence [z-score]
GACGATTTCAGTATGGAGACGTGCTAG | 0.259
TTCCAACTCTGTTTTCGCTTGTGCTAG | 1.35
TTAGGTATCGACTATGGGTTAGTGCTA | 0.0549
GACGAGATCAGACTGGAGACGTGCTAG | -0.316
TCACTTTTCACTTTCTTACTGTGCTAG | 1.94
ACATCCAAATCCACCATTCAGTGCTAG | 0.59
TTTGCTTTCTTTATGTACTCGTGCTAG | 0.659
TTAGATCTAAGTATCGATTAGTGCTAG | 1.34
GACGGTTTCCTACTGCTGAAGTGCTAG | 1.76
TTAGGTTTCGGTATCGGTGAGTGCTAG | 10.7
GTACATCTCTCTTAAATAGGGTGCTAG | 0.842
AACGGTTTCGACTTTCGGGACGTGCTA | 11.2
TCAGGTATCCTTTTCCTTTAGTGCTAG | 1.85
TGTTTTTGCTTTCTTTTTGCGTGCTAG | 3.67
GACGAACTGGGGTTTCCAGACGTGCTA | -0.513
TCAAATTCTCATTTCCAACTGTGCTAG | 0.805
GACGGACTGGGTATCGGTACGTGCTAG | -0.164
GACGAACAGAGACTGGAGACGTGCTAG | 0.281
GACGGTCTCGATATCGGGACGTGCTAG | 2.6
GACGGTTTCGGTTTCGGCACGTGCTAG | 13.7

Repeated from above (block 2):
Variant | binding fitness [natural log]
R30F | -1.2
L38N | -1.53
K39M | -1.39
